Experimental data pooled from the literature.
Parts stem from different laboratories: compare values within a part only.

Block 1
Target: Histone acetyltransferase KAT6A, winged helix 2, GST fusion (KAT6A, Homo sapiens, UniProt Q92794, residues 85-181)
Method: protein binding microarray
Molecule type: double-stranded DNA, one strand shown
Matrix: in vitro
Concentration: not given
Setting: 8-mer, flanks averaged, mean of 2 arrays, mostly near background
Reference: not given
Reading: higher = stronger binding
Construct (chain): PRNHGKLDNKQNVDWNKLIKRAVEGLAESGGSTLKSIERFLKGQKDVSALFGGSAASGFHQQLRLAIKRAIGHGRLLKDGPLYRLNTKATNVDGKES
The E-score of `AGACTTAG` is reported as -0.183.
With `TACTATGA` the E-score was 0.0274.
`CAGCCAAA` gave an E-score of 0.127.
The E-score of `GTCTGAAA` is reported as -0.00445.
The E-score of `ATTCAGCG` is reported as -0.0309.

Block 2
Target: Sal-like protein 4, full length isoform A (SALL4, Homo sapiens, UniProt Q9UJQ4, residues 1-1053)
Sequence of UniProt Q9UJQ4 (whole entry, looked up): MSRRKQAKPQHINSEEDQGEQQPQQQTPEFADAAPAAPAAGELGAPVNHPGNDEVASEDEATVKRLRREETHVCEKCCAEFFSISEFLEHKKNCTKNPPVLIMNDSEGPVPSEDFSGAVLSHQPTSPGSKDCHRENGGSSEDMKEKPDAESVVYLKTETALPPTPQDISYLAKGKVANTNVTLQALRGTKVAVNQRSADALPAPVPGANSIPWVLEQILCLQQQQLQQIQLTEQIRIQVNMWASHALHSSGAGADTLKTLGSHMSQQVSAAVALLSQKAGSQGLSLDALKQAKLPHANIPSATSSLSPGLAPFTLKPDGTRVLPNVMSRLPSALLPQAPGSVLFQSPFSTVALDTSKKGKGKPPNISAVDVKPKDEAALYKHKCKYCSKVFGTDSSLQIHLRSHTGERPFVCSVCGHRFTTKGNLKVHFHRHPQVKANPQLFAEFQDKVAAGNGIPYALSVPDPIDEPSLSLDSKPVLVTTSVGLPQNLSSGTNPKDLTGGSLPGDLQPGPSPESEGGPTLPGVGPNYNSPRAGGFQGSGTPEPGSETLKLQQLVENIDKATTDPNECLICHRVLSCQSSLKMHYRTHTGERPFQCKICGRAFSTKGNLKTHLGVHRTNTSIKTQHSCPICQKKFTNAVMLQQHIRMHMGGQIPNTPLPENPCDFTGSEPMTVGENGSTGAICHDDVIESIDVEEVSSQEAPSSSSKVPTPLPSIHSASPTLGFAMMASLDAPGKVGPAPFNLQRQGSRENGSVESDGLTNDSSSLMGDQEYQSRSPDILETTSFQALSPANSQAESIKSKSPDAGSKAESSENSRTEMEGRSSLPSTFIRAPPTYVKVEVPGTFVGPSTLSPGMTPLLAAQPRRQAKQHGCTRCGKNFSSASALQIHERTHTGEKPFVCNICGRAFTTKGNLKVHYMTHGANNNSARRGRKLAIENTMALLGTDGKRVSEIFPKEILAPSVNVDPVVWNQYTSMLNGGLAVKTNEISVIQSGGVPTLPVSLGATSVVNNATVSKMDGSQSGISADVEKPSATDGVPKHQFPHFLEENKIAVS
Method: universal PBM
Molecule type: double-stranded DNA, one strand shown
Matrix: in vitro
Concentration: 600 nM
Setting: 8-mer, flanks averaged, mean of replicates
Reading: higher = stronger binding
`TGCGTGAA` gave an E-score of 0.0529.
`AATGTCGC` has an E-score of -0.0952.
`CACTTGTA` has an E-score of 0.147.
`TCCAGACA` gave an E-score of -0.102.
For `ACCCTAAG`, the E-score was -0.177.

Further values, each from its own experiment
F2 mature alpha-thrombin: Prothrombin, mature alpha-thrombin (F2, Homo sapiens, UniProt P00734)
For `GGTTGGTGTGGTTGG (2'F-ANA at 2 3 6 7 8 10 11 13 15)`, “mean fluorescence intensity” read 284 a.u. (F2 mature alpha-thrombin; aptamer microarray, sandwich; DNA with 2'F-ANA, in vitro; 200 nM, whole 15-mer aptamer, many near background, together with: Cy3 exosite-II aptamer, 400 nM; higher = stronger binding).
`PhoQ, residues 284 288 289 292 302 303 SLSVQF` has a fold induction of 0.878 (PhoP, residues 12 14 15 18 19 LFHKL (Escherichia coli, UniProt P23836); Sort-seq, item: YFP reporter; E. coli; PhoQ-PhoP variant library, together with: 10 µM Mg2+; reference: high Mg2+ state, higher = stronger signaling).
`GGTTGGTGTGGTTGG (2'F-ANA at 1 2 6 8 12 13)` — result for “mean fluorescence intensity”: 318 a.u. (F2 mature alpha-thrombin; aptamer microarray, sandwich; DNA with 2'F-ANA, in vitro; 200 nM, whole 15-mer aptamer, many near background, together with: Cy3 exosite-II aptamer, 400 nM; higher = stronger binding).

Some of these lines once more (block 1):
With `TACTATGA` the E-score was 0.0274.
